Experimental data of several laboratories.
Parts stem from different laboratories: compare values within a part only. Changes are numbered by the printed parent chain.

Series 1 — method: protein binding microarray; form: double-stranded DNA, one strand shown; sample: in vitro; concentration: not given; baseline: not given; reading: higher = stronger binding
Target: Histone acetyltransferase KAT6A, both winged helices, GST fusion (KAT6A, Homo sapiens, UniProt Q92794, residues 1-181)
Setting: 8-mer, flanks averaged, mean of 2 arrays, mostly near background
Target sequence (chain): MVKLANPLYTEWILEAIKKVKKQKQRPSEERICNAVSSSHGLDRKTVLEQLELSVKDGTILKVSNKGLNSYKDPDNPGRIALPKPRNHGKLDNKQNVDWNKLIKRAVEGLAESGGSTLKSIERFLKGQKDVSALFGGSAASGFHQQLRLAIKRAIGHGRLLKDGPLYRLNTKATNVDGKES
Oligonucleotide	E-score
AAAGTCTA	-0.0726
CTGAAGGA	-0.0949
AATTGAGC	-0.156
AGTTATTA	-0.0394
CATATGAG	-0.0853
ACGTGTTC	0.0151
GAACTTAA	-0.015
CTTTACGA	0.0831
GGTGAAGA	-0.0463
AACTTTCC	-0.179
ACTGACTC	-0.0631
AGGACAGG	-0.205
AAGGTCTG	-0.122
GTGTCCCA	0.0789
GTATTTAA	-0.0595
CGGGCAGA	0.208
CCGATTAC	0.131
CATATGAC	-0.0602

Series 2 — target: UBE2R2 UBC core domain (UniProt Q712K3); method: yeast two-hybrid; sample: yeast; setting: mostly zero background; baseline: not given; reading: higher = stronger interaction
B1: RNF152 RING domain (UniProt Q8N8N0); chain ETLSQDSLLECQICFNYYSPRRRPKLLDCKHTCCSVCLQQMRTSQKDVRCPWCRGVTKLPPGFS
B2: RNF2 RING domain (UniProt Q99496); chain SPRSLHSELMCPICLDMLKNTMTTKECLHRFCADCIITALRSGNKECPTCRKKLVSKRSLR
B3: RNF166 RING domain (UniProt Q96A37); chain GDSGLEAQYTCPICLEVYHRPVAIGSCGHTFCGECLQPCLQVPSPLCPLCRLPFDPKKVDK
B4: RNF31 RING domain (UniProt Q96EP0); chain AFLRRLLAQECAVCGWALPHNRMQALTSCECTICPDCFRQHFTIALKEKHITDMVCPACGRPDLTDDTQLL
B5: MYCBP2 RING domain (UniProt O75592); chain TSLKQDADDMCMICFTEALSAAPAIQLDCSHIFHLQCCRRVLENRWLGPRITFGFISCPICKNKINHIVLKD
B6: ANAPC11 RING domain (UniProt Q9NYG5); chain GICRMAFNGCCPDCKVPGDDCPLVWGQCSHCFHMHCILKWLHAQQVQQHCPMCRQEWKFKE
B7: RLIM RING domain (UniProt Q9NVW2); chain SFGENDALKTCSVCITEYTEGNKLRKLPCSHEYHVHCIDRWLSENSTCPICRRAVLASGNRE
B8: RNF122 RING domain (UniProt Q9H9V4); chain AKKLQLYGQTCAVCLEDFKGKDELGVLPCQHAFHRKCLVKWLEVRCVCPMCNKPIASPSEAT
Residues (chain): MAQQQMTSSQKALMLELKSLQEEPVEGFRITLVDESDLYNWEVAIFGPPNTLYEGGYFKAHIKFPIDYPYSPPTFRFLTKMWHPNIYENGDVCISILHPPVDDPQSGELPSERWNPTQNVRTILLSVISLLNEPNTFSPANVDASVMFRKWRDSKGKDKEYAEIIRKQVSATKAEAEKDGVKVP
Sequence	lacZ reporter activity
LGTKLEAKYLCSACRNVLRRPFQAQCGHRYCSFCLASILSSGPQNCAACVHEGIYEEGIS (TRAF2 RING domain (UniProt Q12933))	0
AEADPLGRFTCPVCLEVYEKPVQVPCGHVFCSACLQECLKPKKPVCGVCRSALAPGVRAV (RNF114 RING domain (UniProt Q9Y508))	0
B1 (RNF152 RING domain)	0
B2 (RNF2 RING domain)	0
FVKTVEDKYKCEKCHLVLCSPKQTECGHRFCESCMAALLSSSSPKCTACQESIVKDKVF (TRAF3 RING domain (UniProt Q13114))	0
B3 (RNF166 RING domain)	0
B4 (RNF31 RING domain)	0
B5 (MYCBP2 RING domain)	0
MNDVLENELQCIICSEYFIEAVTLNCAHSFCSYCINEWMKRKIECPICRKDIKSKTYSL (RNF8 RING domain (UniProt O76064))	0
LDAASGHPLVCPLCHGQYERPCLLDCFHDFCTGCLRGRATDGRLSCPLCQHQTLVKGPSG (Rnf207 RING domain (UniProt Q3V3A7))	0
B6 (ANAPC11 RING domain)	0
B7 (RLIM RING domain)	0
B8 (RNF122 RING domain)	0

Series 3 — method: RNA Bind-n-Seq; form: RNA; sample: in vitro; concentration: 365 nM; baseline: no-protein control; reading: higher = stronger binding
Target: RNA binding protein fox-1 homolog 2, RRM domain, GST-SBP tag (RBFOX2, Homo sapiens, UniProt O43251-10, residues 100-194)
Setting: natural RNA segment, single round, ends assumed
Shared flanks, not repeated: GGGAGUUCUACAGUCCGACGAUC … UGGAAUUCUCGGGUGCCAA
Construct (chain): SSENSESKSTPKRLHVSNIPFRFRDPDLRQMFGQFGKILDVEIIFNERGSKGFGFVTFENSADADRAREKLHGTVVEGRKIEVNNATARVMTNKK
Oligonucleotide	RBNS enrichment (R)
AUGCCUGUCUUUGAGAGGAAGGUGUUAUAAUAUUAAUGAACAGUGCCAAAUACACUGUGCAUAUCUGCAAUUUAAUCUUUGAAUGUAUGUUACUGGAUUAGCUCCCUCCU	0.266
UGCCUCAGUUGAGCAUCUAGGAAGUAUUAAAACUGUGAAGCUUUCUCAGUGCACUUUGAACCUGGAAAACAAUCCCAACAGGCCCGUGGGACCAUGACUUAGGGAGGUGG	0.494
UCAGAGCUCUUAAUGUUGCUUAGAUGAGGGUGACUGUCAAGUACAAGCAAGACUGGGACCUUAGAAAUCAUUGUAGAAACACAGUUUUGAAAGAAAAAUACCAUGUCUCU	0.326
CAGAGCUAAGACAGGUUGCACGUCACUCUUCUGUUGUGGGUGGUGAUUGUGUCCAAUAUGGUGUCUCGCUUGUGUCCUUAUUGGUCCCUUACCCUUUCUGUGUCCAUUGC	12.2
CCAGCUCAGGGGGGCACUUUUAAGGAUCUAGAAAACAGAAAUUAAGGAUCUCAUAGUUAUUUUAUUAGGCCAGCCUUAUUCCAUGUCGGCAAGAGGUUUCUUGUGGAAAU	0.814
UGGGAUUUGCAGAUGUGUUUAGAAACACGCCCAGACCUUGAACCUUGGGUUCAUGGAUUAGUUUUGUAUCUAAAACAGGAAACAAGUCAGAUGAUGUGGUUUGUACACUU	0.746
UAAAACCAAUUUCUACACUAAAGUUGUCAAAUGUUAGAAGAAUCCUGUGUUCAGUUAUGAGACUCUUUGCAUAGUAUAGGGACUUGAAAGUUUUAUGAGACGGGUGUAAU	0.591
UUCUUGCCUUACUACAGUGAUGGUCCCAGUGGAUAGAGCAGCUGCACUGGGCAACCUCAUCUUGCCUGCUCUCCCGCACCUGCUGGGACAUGAGCAUCUUGGGAUAUCUC	0.532
CUACCGCCUGUGUGACUGAGCUGCCUCCUGAGGCAGUGCCACAGCCGGGACUGGAGUCCCUGGGCCCUCAACACUGGAUGCAAAUGUGUUACACUGGAGCCUGCUGCAGG	2.75
CAAGUACGAUUUGACAGUAGUACAAUAACCUGUGCCCAAAACACAAGAAAUACAGAGUAAAGCGAAAAUAACUGCUUACCAAUAUUCUGAGAGGUAACAAAUGGGAUAUG	0.346
GCGGUCCUAAUGCACAGUGACCAAUAUCCACAUAACCUCAUUUGCCUUCCAGAUGUUCAGAUAGUCAAAGCUUCUCUCUACCUUGUUUUCCCUCAAUGCAUGUAAUUAAA	37.4
UGUUCUUUGUGGACUAUUUCAGACAACCAGGUUCCGACAGUCCAGCCCAGAACUUUUCCUUCUCAUUUUGGGUUUUCUCUUCUCCUGCUUUCCUGGGGAGAGAUUAAGCG	0.366

Series 4 — target: CCNB3, cyclin fold, Cln2 fusion (human); method: yeast growth competition, sequencing; sample: yeast; setting: strong parent motif; baseline: not given; reading: higher = stronger binding
Starting sequence: SCAPER docking peptide (human); SNARRSLNFGGST; partner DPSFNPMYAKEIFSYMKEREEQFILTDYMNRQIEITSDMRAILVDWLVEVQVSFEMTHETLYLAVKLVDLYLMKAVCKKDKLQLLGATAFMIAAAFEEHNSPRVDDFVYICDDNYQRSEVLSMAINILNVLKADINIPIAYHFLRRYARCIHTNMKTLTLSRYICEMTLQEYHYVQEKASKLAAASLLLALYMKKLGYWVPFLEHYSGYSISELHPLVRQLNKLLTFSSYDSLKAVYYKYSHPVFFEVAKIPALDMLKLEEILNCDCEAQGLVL
Substitution	normalised enrichment score
G11T	1.7
R4W	0.397
N2G	2.01
S1C	1.95
L7A	0.522
S1T	1.52
R4G	0.198
N8M	0.557
A3Q	0.0229
N2L	1.5
S6Q	0.951
G10L	0.539
G10P	0.749
T13C	1.59

Series 5 — method: DHFR PCA, deep sequencing; sample: yeast; with: (+)-ABA 0.032 µM; baseline: wild-type fitted maximum; reading: higher = stronger binding
Target: ABI1, truncated, D143A, DHFR fusion (Arabidopsis thaliana)
Setting: methotrexate growth selection, single substitutions
Starting sequence: PYL1, truncated, DHFR fusion (Arabidopsis thaliana); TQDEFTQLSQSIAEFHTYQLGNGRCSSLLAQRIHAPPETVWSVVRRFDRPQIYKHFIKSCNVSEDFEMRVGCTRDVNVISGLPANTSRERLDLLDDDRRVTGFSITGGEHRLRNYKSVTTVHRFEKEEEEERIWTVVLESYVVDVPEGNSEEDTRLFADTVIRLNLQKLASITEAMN; partner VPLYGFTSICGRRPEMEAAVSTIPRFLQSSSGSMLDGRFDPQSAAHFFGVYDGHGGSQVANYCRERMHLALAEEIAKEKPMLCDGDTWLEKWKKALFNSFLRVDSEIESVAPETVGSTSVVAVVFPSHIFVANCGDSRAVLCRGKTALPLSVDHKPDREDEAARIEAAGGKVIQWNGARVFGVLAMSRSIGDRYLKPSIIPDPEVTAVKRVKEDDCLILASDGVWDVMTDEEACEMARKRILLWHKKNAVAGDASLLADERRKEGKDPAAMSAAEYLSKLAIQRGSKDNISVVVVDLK
Substitution	relative binding score [%]
E64M	-2.18
N77F	18.7
K116T	12.9
M68Q	2.74
K54T	-5.72
T17I	-5.64
T173R	-1.72
E127Q	40
E128N	39.7
E129M	13.6
S104E	0.0402
Y115K	5.07
I162A	6.67
L28T	6.33
G81Q	6.76
P36W	3.22

A few entries again (series 2):
Sequence	lacZ reporter activity
B4 (RNF31 RING domain)	0
B5 (MYCBP2 RING domain)	0
MNDVLENELQCIICSEYFIEAVTLNCAHSFCSYCINEWMKRKIECPICRKDIKSKTYSL (RNF8 RING domain (UniProt O76064))	0
LDAASGHPLVCPLCHGQYERPCLLDCFHDFCTGCLRGRATDGRLSCPLCQHQTLVKGPSG (Rnf207 RING domain (UniProt Q3V3A7))	0
B6 (ANAPC11 RING domain)	0
B7 (RLIM RING domain)	0
B8 (RNF122 RING domain)	0
